Measurements collected from several papers.
Each numbered part is a random draw from the data of one study; scales do not carry over between parts. Substitutions count along the parent as printed.

Block 1
Target: RING finger protein unkempt homolog, zinc fingers 1-6, GST-SBP tag (UNK, Homo sapiens, UniProt Q9C0B0, residues 30-357)
Sequence of UniProt Q9C0B0 (30-357, looked up): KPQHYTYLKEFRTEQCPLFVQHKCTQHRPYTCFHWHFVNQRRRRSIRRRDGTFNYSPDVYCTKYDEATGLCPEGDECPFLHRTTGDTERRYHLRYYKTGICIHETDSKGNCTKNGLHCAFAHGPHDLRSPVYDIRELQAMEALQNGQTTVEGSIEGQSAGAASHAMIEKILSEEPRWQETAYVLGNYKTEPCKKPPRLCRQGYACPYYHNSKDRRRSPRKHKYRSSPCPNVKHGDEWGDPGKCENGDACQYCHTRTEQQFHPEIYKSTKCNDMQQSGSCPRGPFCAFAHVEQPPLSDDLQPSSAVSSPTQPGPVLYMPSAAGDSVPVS
Method: RNA Bind-n-Seq
Form: RNA
Matrix: in vitro
Concentration: not given
Setting: RNA with constant flanks, human-mouse chimeric sites, ends assumed
Baseline: input RNA pool
Direction: higher = stronger binding
Strand | bound/input enrichment
GGGAGUUCUACAGUCCGACGAUCUUACCCGAGAACGAGGAUGAGCUGGAGAGCACCAACAGGCGCUACACCAAGAGAGACUGCAGCACUUUCCUCAGAACUAGUGAGACGGGCAUUGUGGACCAGGUCAUGGUCACUCUCAACCAACAGAGGAUUGAGCAUCA | 0.144 ratio
GGGAGUUCUACAGUCCGACGAUCGAAUCCUACUCAGGCGGAUUUUGCAACCUGAAUGCAACAGCAGCAGCAUCUUAGUCACAGUAGGGUAGUUUUGGGGCUCUGUGGCCAGGGUUUUAUUCACAUGCAGGUUUUGAAAAUGUACAACAGAGGAUUGAGCAUCA | 0.933 ratio
GGGAGUUCUACAGUCCGACGAUCACUCAGAGAUCCACCUCCCAAAGUGCUGGGAGUAAAGGUGUGGCCACCACACCUAACUUGAUGGAUAUAUAUUUUUUCUCUUUUAUGUCUUCCUGUUCUUCAUCCAGAGAAAGAUUUGUUCAACAGAGGAUUGAGCAUCA | 0.297 ratio
GGGAGUUCUACAGUCCGACGAUCCCUCCCCCGGGCCACCCACCCCUCCCGGCUCCCCGCCGAGAUCCAGGUUUCUUCUUAUUUCAUAGCAAAUAAGAAAAAUGUUCUACGCACAUUUUGUUCUCAGUAAACGAGGGCCUCUGGCAACAGAGGAUUGAGCAUCA | 1.32 ratio

Block 2
Target: Transcription factor Sp1 (SP1, Homo sapiens, UniProt P08047, residues 1-785, full length assumed)
Sequence of UniProt P08047 (whole entry, looked up): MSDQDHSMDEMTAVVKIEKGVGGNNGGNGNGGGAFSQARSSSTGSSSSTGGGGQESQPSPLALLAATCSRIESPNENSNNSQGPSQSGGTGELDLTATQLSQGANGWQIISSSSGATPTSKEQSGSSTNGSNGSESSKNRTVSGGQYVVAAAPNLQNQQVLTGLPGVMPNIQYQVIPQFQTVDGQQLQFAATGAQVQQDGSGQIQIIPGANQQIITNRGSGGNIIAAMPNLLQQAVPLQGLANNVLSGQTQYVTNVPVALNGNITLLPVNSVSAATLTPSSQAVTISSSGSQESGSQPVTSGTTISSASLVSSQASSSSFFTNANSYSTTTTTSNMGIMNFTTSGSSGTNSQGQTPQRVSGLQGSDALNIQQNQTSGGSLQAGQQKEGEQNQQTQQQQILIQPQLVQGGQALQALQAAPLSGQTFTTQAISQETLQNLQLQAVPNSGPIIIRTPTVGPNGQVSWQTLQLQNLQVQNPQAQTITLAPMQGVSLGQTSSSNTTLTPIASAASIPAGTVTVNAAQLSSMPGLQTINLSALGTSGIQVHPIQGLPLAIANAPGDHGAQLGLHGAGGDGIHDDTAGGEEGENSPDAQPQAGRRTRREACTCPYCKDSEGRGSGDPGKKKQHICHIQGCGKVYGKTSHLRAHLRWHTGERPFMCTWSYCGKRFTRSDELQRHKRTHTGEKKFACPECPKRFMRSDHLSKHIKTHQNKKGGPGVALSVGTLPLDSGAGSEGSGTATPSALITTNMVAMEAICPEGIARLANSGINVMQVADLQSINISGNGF
Method: protein-binding microarray
Form: double-stranded DNA, one strand shown
Matrix: in vitro
Concentration: not given
Setting: k-mer, scored over probes, only values ≥0.25
Direction: higher = stronger binding
Strand | E-score
ACCCACCC | 0.47
GACCCGCC | 0.374
GAAGGGGC | 0.358
GCCCTCCC | 0.418
CATTGCAC | 0.258
AATACAAA | 0.25
CCACCCCG | 0.345
GACGCCCC | 0.361
ACTGTTAC | 0.256
ATGGGCGG | 0.462
ATTGGTGG | 0.256
ACCACCCC | 0.412
AGGAGGGG | 0.462
CACCCCTA | 0.359

Block 3
Target: Fragile X messenger ribonucleoprotein 1, C-terminal low-complexity region (Fmr1, Mus musculus, UniProt P35922)
Method: RNA Bind-n-Seq
Form: RNA
Matrix: in vitro
Concentration: 200 nM
Setting: whole 134-nt RNA, ends assumed
Added: 150 mM LiCl
Baseline: input library
Direction: higher = stronger binding
Library: 7-deaza-guanosine replaces G
All sequences stand within: GGGAGUUCUACAGUCCGACGAUC … UGGAAUUCUCGGGUGUCAAGG
Strand | log2 enrichment
AAGUCCUGUGCUACACAUCGUAUGUACCGAAUCGGGUUUUUGGGAAAAAGGGAGGGAAAGUAUUAUGUUACGCCGUUCGGAUCUGCACUU | -1.28
GCAGAAAGUAAAAACAAAUGGAAAUGCUUCGGAUAGUGGCAGGGGUGGGGGUUGCUAAGGAAAGGGUGGGAUGGGAGUGGGUAAAGAGUU | 1.7
AGUCCUGUGCUACACAUCGUAUGUACCGAAUCAAAUUUAAAUUUUUAAACCCCCAAAAAAGUAUUAUGUUACGCCGUUCGGAUCUGCACU | 0.273
AAGUCCUGUGCUACACAUCGUAUGUACCGAAUCGGAAAAAGGUUUUUGGUUUUUGGAAAGUAUUAUGUUACGCCGUUCGGAUCUGCACUU | -3.17
UGGCCCUGGUGGCAUGCGGGGAGGAAGAGGUGGCCUCAUGGAUCGUGGUGGUCCCGGUGGAAUGUUCAGAGGUGGCCGUUGUGGAGACAG | -0.841
AGUCCUGUGCUACACAUCGUAUGUACCGAAUCGGUUUUUUUGGUUUUUUUGGUUUGGAAAGUAUUAUGUUACGCCGUUCGGAUCUGCACU | -2.6
UCAAGUCCUGUGCUACACAUCGUAUGUACCGAAUCGGGGCCCGGCCCGGCCCGGAAAGUAUUAUGUUACGCCGUUCGGAUCUGCACUUCC | -0.761
UGGGAGGUGGAUUUUGUUUAUUUUUUUAGCUCAUUUCCAGGGGUGGGAAUUUUUUUUUUAUAUGUGUCAUGAAUAAAGUUGUUUUUGAAA | 0.34

Block 4
Target: Sal-like protein 4, full length isoform B (SALL4, Homo sapiens, UniProt Q9UJQ4-2, residues 1-616)
Method: universal PBM
Form: double-stranded DNA, one strand shown
Matrix: in vitro
Concentration: not given
Setting: 8-mer, flanks averaged, mean of replicates
Direction: higher = stronger binding
Strand | E-score
CAGGTACC | -0.261
ACGCCCTC | -0.0963
AAGTGTGA | 0.0184
ACCTCCAT | -0.0435
CGGCCACG | -0.288
ACGACGTG | 0.0217
AAAGCTTT | 0.0592
ATAGAAGG | -0.0284
AAACCGCC | -0.0993
CCTAATCA | 0.159
AATGTGTG | 0.119
CATTTGCG | 0.0466
AGAATAAC | 0.189
AAGAGCTA | -0.0215
GATAGGCA | 0.147
ACTAACAA | 0.168
CCGTTTCC | -0.143
ATTGTCAG | 0.052
AGGTCCTC | -0.19
GAGTGAAA | 0.223
AACAGGTG | -0.0195
CCGGGTCC | -0.424
CTGCAGGC | -0.295
ATCCTAGA | 0.0719
CTTCACAC | 0.097

Block 5
Target: CREB3L1, bZIP domain (human)
Method: DHFR protein complementation
Matrix: yeast
Setting: single substitutions, most at no-binding floor
Baseline: wild-type JUN-FOS pair
Direction: higher = stronger binding
Parent: JUN, bZIP domain (human); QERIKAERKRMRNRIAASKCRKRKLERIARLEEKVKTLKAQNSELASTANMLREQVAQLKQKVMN; partner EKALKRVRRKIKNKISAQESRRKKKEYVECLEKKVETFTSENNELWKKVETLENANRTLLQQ
Variant | binding fitness
R53S | -1.44 natural log
E32W | -1.52 natural log
I28V | -1.45 natural log
V56R | -1.41 natural log
A46F | -1.45 natural log
A40V | -1.18 natural log
T48A | -1.33 natural log
A29G | -1.38 natural log
L38A | -1.48 natural log
K36M | -1.25 natural log
T37M | -0.925 natural log
A46W | -1.3 natural log
L31T | -1.26 natural log
V35H | -1.52 natural log
E32Q | -1.34 natural log
K34L | -1.29 natural log

Block 6
Target: CCNB1, cyclin fold, Cln2 fusion (human)
Method: yeast growth competition, sequencing
Matrix: yeast
Setting: weak parent motif
Baseline: not given
Direction: higher = stronger binding
Parent: CABLES2 docking peptide (human); ICAKRSLCAAFSV
Variant | normalised enrichment score
S12A | 0.403
C2A | -0.0462
C8A | 0.0423
V13A | 0.359
F11A | 0.546

Other studies, line by line
Substance | target | assay | system | conditions | how to read | endpoint | result
PhoQ, residues 284 288 289 292 302 303 NLALSC | PhoP, residues 12 14 15 18 19 SYFRT (Escherichia coli, UniProt P23836) | Sort-seq, item: YFP reporter | E. coli | PhoQ-PhoP variant library, added: 10 µM Mg2+ | baseline: high Mg2+ state, higher = stronger signaling | fold induction | 4.41

Repeated from above (block 4):
Strand | E-score
CGGCCACG | -0.288
ACGACGTG | 0.0217
AAAGCTTT | 0.0592
ATAGAAGG | -0.0284
AAACCGCC | -0.0993
